Assay results from different studies.
Numbered parts are unrelated; each lists some results of a single study. “And” joins repeats or separate records; there may be more than shown.

Block 1
Organism: Sarcocystis neurona
Effect on: parasite growth
Concentration: 10 µM
Time: 96 h
Relative to: untreated
Quantity: log2 fold change
Structure (SMILES) = C#C[C@]1(O)CC[C@H]2[C@@H]3CCc4cc(OC)ccc4[C@H]3CC[C@@]21C; result = 0.47
Structure (SMILES) = COc1cccc2c1C(=O)c1c(O)c3c(c(O)c1C2=O)C[C@@](O)(C(=O)CO)C[C@@H]3O[C@H]1C[C@H](N)[C@H](O)[C@H](C)O1; result = -1.18
Structure (SMILES) = COc1ccc2[nH]c([S+]([O-])Cc3ncc(C)c(OC)c3C)nc2c1 (stereo not drawn); result = 0.28
Structure (SMILES) = Nc1cc(N2CCCCC2)nc(N)[n+]1[O-]; result = 0.35
Structure (SMILES) = COc1cc(C(=O)NC2CCCNC2)cc(OC)c1OC (stereo not drawn); result = 0.39
Structure (SMILES) = COc1ccc([C@@H]2Sc3ccccc3N(CCN(C)C)C(=O)[C@@H]2OC(C)=O)cc1; result = -0.0333
Structure (SMILES) = CO[C@H]1/C=C/O[C@@]2(C)Oc3c(C)c(O)c4c(O)c(c(/C=N/N5CCN(C6CCCC6)CC5)c(O)c4c3C2=O)NC(=O)/C(C)=C\C=C\[C@H](C)[C@H](O)[C@@H](C)[C@@H](O)[C@@H](C)[C@H](OC(C)=O)[C@@H]1C; result = 0.21
Structure (SMILES) = Cc1ccc(S(=O)(=O)NC(=O)NN2CCCCCC2)cc1; result = 0.26
Structure (SMILES) = CC[C@]1(O)C[C@H]2CN(CCc3c([nH]c4ccccc34)[C@@](C(=O)OC)(c3cc4c(cc3OC)N(C=O)[C@H]3[C@@](O)(C(=O)OC)[C@H](OC(C)=O)[C@]5(CC)C=CCN6CC[C@]43[C@@H]65)C2)C1; result = -0.09

Block 2
Host: human
Medium: microsomes or S9
Concentration: 2 µM
Time: 0.5 h
Quantity: remaining compound
Structure (SMILES) = O=C1CC(c2cccc3[nH]ccc23)c2c(n[nH]c2-c2ccccc2)N1 (stereo not drawn); result = 37.1%
Structure (SMILES) = Cn1c(=O)[nH]c(=O)c2c1nc(NC1CCCCC1)n2CC(=O)NC1CCCCC1; result = 16.1%
Structure (SMILES) = COc1cc(=O)[nH]cc1C(=O)N1CCCC1c1cncc(C)c1 (stereo not drawn); result = 96.5%
Structure (SMILES) = CC(=O)c1c(NN2CCOCC2)[nH]c2c(Cl)cc([N+](=O)[O-])cc2c1=O; result = 32.7%
Structure (SMILES) = Cc1cccc2c1ccn2CC(=O)N1CCNC(=O)C1; result = 80.2%
Structure (SMILES) = Oc1ccc([C@H]2Oc3cc(O)cc(O)c3C[C@H]2O)cc1; result = 91.5%
Structure (SMILES) = Fc1cnc(Nc2ccccc2Cl)nc1Nc1ccccc1Cl; result = 17.6%
Structure (SMILES) = Cn1c(=O)c2c(ncn2CC(O)C/N=C2\CCCCCN2)n(C)c1=O (stereo not drawn); result = 94.4%

Block 3
Compound: COc1ccc2c(c1)O[C@@H](c1ccc(OC)c(OC)c1)C[C@H]2NC(=O)C1(c2ccc3c(c2)OC(F)(F)O3)CC1 (single isomer, unassigned)
Concentration: 1 µM
Relative to: DMSO
Quantity: viability
cell line = sample J colorectal tumour organoid; result = 95.5%
cell line = normal adjacent epithelium organoid sample F; test = CellTiter-Glo; result = 90.2%
cell line = sample I colorectal tumour organoid; result = 85.7% and 90.6%
cell line = sample C colorectal tumour organoid; result = 87.1% and 84.4%
cell line = normal-adjacent epithelium patient-derived organoids sample H; test = CellTiter-Glo; result = 101% and 125%
cell line = normal adjacent epithelium organoid sample H; test = CellTiter-Glo; result = 113%
cell line = colorectal tumour organoids; result = 92.9%

Block 4
Compound: COc1cc(C(=O)OCCCN2CCCN(CCCOC(=O)c3cc(OC)c(OC)c(OC)c3)CC2)cc(OC)c1OC
Effect on: mechanical pain
Method: von Frey test
Host: mouse, STZ diabetic neuropathy
Route: intravenous
Dose: 30 mg/kg
Quantity: paw withdrawal threshold
setting = 1 h post-dose, first injection, day 8; result = 0.51 g and 0.29 g and 0.32 g and 0.05 g and 0.1 g
setting = 3 h post-dose, third injection; result = 0.08 g and 0.05 g and 0.32 g and 0.4 g and 0.29 g
setting = 1 h post-dose, third injection; result = 0.4 g and 0.1 g and 0.05 g and 0.27 g

For quick reference, copied from above (block 1):
Structure (SMILES) = COc1cccc2c1C(=O)c1c(O)c3c(c(O)c1C2=O)C[C@@](O)(C(=O)CO)C[C@@H]3O[C@H]1C[C@H](N)[C@H](O)[C@H](C)O1; result = -1.18
Structure (SMILES) = COc1ccc2[nH]c([S+]([O-])Cc3ncc(C)c(OC)c3C)nc2c1 (stereo not drawn); result = 0.28
